Experimental data gathered from unrelated publications.
± marks the error that the study gave.
NTSR1: Neurotensin receptor type 1 (NTSR1, Homo sapiens, UniProt P30989)
Sequence of UniProt P30989 (whole entry, looked up): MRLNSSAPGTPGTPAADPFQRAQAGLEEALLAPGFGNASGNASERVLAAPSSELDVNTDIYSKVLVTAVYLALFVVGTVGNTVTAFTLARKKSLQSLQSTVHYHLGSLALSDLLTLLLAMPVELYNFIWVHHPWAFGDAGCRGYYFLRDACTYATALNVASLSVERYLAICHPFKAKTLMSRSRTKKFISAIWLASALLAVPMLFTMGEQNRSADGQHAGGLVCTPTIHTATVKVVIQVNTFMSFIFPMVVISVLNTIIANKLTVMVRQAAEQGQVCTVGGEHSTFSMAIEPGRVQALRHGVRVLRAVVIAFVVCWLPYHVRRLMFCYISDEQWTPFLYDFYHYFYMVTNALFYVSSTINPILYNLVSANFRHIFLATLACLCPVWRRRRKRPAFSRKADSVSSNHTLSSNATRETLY
CHRM5: Muscarinic acetylcholine receptor M5 (CHRM5, Homo sapiens, UniProt P08912)
Sequence of UniProt P08912 (whole entry, looked up): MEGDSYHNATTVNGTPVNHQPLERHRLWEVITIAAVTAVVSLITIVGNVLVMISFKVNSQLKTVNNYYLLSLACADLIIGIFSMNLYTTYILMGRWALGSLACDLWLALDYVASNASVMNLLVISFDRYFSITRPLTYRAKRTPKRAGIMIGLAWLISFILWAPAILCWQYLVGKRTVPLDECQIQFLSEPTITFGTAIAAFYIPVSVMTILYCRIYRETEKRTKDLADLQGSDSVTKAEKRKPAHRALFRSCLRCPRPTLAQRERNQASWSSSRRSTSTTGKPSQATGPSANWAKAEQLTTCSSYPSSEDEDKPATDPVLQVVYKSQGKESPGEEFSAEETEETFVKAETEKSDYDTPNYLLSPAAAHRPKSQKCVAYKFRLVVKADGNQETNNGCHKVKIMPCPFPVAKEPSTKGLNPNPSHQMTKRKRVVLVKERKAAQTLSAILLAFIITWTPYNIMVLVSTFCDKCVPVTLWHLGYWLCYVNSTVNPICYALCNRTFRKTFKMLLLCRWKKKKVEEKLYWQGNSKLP
Sequence of UniProt P24530 (whole entry, looked up): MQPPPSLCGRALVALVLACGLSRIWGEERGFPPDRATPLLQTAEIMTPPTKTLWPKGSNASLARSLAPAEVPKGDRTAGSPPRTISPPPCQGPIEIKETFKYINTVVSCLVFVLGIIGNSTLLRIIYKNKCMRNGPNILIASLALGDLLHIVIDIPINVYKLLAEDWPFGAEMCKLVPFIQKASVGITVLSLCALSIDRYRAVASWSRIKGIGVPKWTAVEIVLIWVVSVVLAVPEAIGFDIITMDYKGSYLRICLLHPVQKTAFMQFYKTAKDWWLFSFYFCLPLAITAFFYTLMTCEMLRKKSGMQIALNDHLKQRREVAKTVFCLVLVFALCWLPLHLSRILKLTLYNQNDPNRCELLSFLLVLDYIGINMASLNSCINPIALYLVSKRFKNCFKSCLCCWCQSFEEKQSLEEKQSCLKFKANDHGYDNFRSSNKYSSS
Sequence of UniProt O09047 (whole entry, looked up): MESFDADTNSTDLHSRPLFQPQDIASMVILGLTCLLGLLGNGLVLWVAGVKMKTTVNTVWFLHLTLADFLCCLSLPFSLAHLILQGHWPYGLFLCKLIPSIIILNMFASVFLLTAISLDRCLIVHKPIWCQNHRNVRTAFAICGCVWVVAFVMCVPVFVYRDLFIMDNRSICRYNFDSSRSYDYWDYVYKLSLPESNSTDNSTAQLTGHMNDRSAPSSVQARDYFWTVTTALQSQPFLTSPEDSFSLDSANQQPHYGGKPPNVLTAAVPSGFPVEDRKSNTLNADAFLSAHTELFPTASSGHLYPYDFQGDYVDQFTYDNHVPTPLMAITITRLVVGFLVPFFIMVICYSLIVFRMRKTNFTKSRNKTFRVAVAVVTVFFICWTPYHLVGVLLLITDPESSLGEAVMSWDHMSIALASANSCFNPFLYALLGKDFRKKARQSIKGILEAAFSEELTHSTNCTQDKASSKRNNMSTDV
Sequence of UniProt Q9NSD7 (whole entry, unmodified, looked up): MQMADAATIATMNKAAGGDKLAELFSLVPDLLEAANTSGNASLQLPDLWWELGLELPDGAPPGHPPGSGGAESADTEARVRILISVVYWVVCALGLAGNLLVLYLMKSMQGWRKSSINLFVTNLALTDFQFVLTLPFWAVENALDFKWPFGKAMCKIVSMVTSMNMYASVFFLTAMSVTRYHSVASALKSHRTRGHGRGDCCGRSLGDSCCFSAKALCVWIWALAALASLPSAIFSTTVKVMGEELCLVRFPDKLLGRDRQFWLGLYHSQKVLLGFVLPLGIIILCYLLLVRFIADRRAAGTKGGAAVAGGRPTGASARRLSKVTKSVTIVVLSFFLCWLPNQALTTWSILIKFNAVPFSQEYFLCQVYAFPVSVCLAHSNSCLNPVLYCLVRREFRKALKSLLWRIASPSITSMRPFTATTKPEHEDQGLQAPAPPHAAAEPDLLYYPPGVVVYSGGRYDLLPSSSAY
Sequence of UniProt Q969F8 (whole entry, unmodified, looked up): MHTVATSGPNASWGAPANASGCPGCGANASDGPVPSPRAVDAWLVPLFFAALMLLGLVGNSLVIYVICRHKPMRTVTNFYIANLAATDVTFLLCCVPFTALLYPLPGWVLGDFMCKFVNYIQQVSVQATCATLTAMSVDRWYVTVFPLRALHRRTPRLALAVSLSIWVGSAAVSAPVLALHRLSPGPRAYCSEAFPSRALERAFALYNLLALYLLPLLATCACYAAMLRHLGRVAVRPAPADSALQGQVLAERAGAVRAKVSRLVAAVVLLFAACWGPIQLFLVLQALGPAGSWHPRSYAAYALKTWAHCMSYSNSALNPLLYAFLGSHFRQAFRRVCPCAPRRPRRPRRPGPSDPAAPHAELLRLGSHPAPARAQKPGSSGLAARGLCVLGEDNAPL

SMILES	target	test	test system	setting	how to read	Emax
Cc1cc(C(c2ccc(Cl)cc2)c2ccc(Cl)cc2)sc1C(=O)N[C@@H](CCCN=C(N)N)C(=O)O	C3a anaphylatoxin chemotactic receptor (C3ar1, Mus musculus, UniProt O09047)	cAMP response, agonist, GloSensor cAMP		Gi signalling		51.1 ± 1.38%
COc1ccccc1C1CCN(c2nc(C3CC3)nc3cc(C(F)(F)F)c(OC)cc23)CC1	NTSR1	β-arrestin recruitment, agonist	HEK-293T			75.4%
C=CCn1c(=O)c2ccccc2n2c(SCC(=O)NC3CC3)nnc12	CHRM5	receptor activation, agonist		concentration not given, 16 h		114 ± 10%
COc1ccccc1C1CCN(c2nc(C3(F)CCCC3)nc3ccc(N(C)CCO)cc23)CC1	NTSR1	β-arrestin recruitment, agonist	HEK-293T			106%
CCCCCCOc1ccc(C(=O)OCCN2CC=CCC2)cc1	CHRM5		membranes	1 µM, 15 h, added: carbachol	reference: control	1.47 ± 0.09 fold
CCCC[C@H](NC(=O)[C@H](CC(C)C)NC(=O)[C@H](CO)NC(=O)[C@H](CO)NC(=O)[C@H](C)NC(=O)[C@H](CO)NC(=O)[C@H](C)N)C(=O)N[C@@H](CC(=O)O)C(=O)N[C@@H](CCCCN)C(=O)N[C@@H](CCC(=O)O)C(=O)N[C@@H](C)C(=O)N[C@H](C(=O)N[C@@H](Cc1ccc(O)cc1)C(=O)N[C@@H](Cc1ccccc1)C(=O)N[C@@H](C)C(=O)N[C@@H](Cc1c[nH]cn1)C(=O)N[C@@H](CC(C)C)C(=O)N[C@@H](CC(=O)O)C(=O)N[C@H](C(=O)N[C@H](C(=O)N[C@@H](Cc1c[nH]c2ccccc12)C(=O)O)[C@@H](C)CC)[C@@H](C)CC)C(C)C	EDNRB (Homo sapiens, UniProt P24530)	agonist	HEK293	ETBR/ETAR ratio 1:0.5		80 ± 6%
CCCCOc1ccc(C(=O)OCC[N+]2(C)CC=CCC2)cc1 (stereo not shown)	CHRM5		membranes	10 µM, 15 h, added: carbachol	reference: control	1.43 ± 0.09 fold
CNC(=N)NCCC[C@H](NC(=O)[C@H](CC(C)C)NC(=O)NNC(=O)[C@H](Cc1ccccc1)NC(=O)[C@@H](NC(=O)[C@H](CC(N)=O)NC(=O)[C@@H]1C[C@@H](O)CN1C(=O)[C@@H](Cc1ccc(O)cc1)NC(C)=O)[C@@H](C)O)C(=O)N[C@@H](Cc1c[nH]c2ccccc12)C(N)=O	KiSS-1 receptor (KISS1R, Homo sapiens, UniProt Q969F8, N78A)	inositol phosphate, agonist	HEK293			67.8%
CCCCCCOc1ccc(C(=O)OCC[N+]2(C)CC=CCC2)cc1 (stereo not shown)	CHRM5		membranes	1 µM, 15 h, added: carbachol	reference: control	1.35 ± 0.06 fold
CCc1cc(O)cc2c(/C=N/NC(=N)NCCc3ccc(Cl)cc3)c[nH]c12	RXFP3 (Homo sapiens, UniProt Q9NSD7, S159L/S163V)		HEK-293T		reference: wild type	106 ± 7.67%

Repeated from above:
SMILES	target	test	test system	setting	how to read	Emax
C=CCn1c(=O)c2ccccc2n2c(SCC(=O)NC3CC3)nnc12	CHRM5	receptor activation, agonist		concentration not given, 16 h		114 ± 10%
